Assay results of several laboratories.
Protocols differ between the studies behind these lines. “And” joins repeats or separate records; there may be more than shown. Numbers after ± are the reported error.
UGT2B7: UDP-glucuronosyltransferase 2B7 (UGT2B7, Homo sapiens, UniProt P16662)
Chain of UniProt P16662 (whole entry, looked up): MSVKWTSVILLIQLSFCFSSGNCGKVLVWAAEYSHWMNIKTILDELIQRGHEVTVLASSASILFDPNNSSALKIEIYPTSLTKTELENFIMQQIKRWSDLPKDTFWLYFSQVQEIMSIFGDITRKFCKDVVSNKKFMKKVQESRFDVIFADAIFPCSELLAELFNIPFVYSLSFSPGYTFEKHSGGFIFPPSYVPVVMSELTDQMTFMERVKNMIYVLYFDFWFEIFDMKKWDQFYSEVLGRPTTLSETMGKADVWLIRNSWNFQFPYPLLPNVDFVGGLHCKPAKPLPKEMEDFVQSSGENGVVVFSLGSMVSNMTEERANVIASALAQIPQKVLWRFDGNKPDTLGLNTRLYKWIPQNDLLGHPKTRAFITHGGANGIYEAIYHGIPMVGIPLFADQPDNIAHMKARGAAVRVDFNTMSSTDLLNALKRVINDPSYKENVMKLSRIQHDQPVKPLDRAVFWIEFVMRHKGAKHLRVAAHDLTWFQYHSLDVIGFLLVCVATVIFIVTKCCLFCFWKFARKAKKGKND
SLC22A8: Organic anion transporter 3 (SLC22A8, Homo sapiens, UniProt Q8TCC7)
Chain of UniProt Q8TCC7 (whole entry, looked up): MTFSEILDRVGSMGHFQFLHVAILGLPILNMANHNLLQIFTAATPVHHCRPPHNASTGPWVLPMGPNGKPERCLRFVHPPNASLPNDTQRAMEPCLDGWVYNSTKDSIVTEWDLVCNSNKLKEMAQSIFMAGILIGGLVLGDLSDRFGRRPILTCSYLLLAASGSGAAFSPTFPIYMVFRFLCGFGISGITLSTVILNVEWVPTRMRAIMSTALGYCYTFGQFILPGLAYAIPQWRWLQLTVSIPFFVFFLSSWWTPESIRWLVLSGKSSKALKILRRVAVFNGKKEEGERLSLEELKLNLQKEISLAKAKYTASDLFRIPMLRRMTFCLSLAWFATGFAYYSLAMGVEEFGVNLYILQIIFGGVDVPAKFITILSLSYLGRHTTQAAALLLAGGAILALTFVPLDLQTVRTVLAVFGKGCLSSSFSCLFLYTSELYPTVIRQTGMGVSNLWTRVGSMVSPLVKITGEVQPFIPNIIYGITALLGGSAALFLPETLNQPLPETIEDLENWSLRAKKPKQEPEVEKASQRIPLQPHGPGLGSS
ALB: Albumin (ALB, Homo sapiens, UniProt P02768)
CYP3A5: Cytochrome P450 3A5 (CYP3A5, Homo sapiens, UniProt P20815)
Chain of UniProt P20815 (whole entry, looked up): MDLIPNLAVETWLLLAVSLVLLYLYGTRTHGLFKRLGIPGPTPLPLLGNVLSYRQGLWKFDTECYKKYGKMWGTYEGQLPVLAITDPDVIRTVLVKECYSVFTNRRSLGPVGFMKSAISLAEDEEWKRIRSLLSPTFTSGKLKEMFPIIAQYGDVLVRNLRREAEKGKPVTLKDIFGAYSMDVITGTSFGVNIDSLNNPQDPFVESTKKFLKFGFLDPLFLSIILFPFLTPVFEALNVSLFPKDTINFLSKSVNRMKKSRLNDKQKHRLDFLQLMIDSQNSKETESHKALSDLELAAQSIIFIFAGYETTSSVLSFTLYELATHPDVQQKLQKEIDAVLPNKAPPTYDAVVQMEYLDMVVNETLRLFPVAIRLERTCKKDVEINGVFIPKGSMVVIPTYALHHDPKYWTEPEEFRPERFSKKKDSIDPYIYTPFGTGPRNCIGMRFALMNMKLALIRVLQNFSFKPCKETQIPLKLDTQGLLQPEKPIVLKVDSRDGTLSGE
CYP3A4: Cytochrome P450 3A4 (CYP3A4, Homo sapiens, UniProt P08684)
Chain of UniProt P08684 (whole entry, looked up): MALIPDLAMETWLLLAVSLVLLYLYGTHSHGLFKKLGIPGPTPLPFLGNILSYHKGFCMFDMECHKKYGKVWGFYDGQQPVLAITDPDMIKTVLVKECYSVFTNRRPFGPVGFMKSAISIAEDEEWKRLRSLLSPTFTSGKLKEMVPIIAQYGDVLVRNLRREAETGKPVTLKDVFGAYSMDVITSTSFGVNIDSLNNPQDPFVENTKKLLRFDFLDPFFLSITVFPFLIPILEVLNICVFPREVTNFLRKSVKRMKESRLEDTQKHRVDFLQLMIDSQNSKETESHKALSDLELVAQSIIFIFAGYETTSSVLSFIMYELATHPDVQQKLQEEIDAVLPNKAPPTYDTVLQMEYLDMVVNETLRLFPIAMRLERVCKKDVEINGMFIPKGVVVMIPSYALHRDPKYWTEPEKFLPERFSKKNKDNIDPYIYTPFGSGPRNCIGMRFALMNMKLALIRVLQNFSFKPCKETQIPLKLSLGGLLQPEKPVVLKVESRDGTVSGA
CYP2C19: Cytochrome P450 2C19 (CYP2C19, Homo sapiens, UniProt P33261)
Chain of UniProt P51575 (whole entry, unmodified, looked up): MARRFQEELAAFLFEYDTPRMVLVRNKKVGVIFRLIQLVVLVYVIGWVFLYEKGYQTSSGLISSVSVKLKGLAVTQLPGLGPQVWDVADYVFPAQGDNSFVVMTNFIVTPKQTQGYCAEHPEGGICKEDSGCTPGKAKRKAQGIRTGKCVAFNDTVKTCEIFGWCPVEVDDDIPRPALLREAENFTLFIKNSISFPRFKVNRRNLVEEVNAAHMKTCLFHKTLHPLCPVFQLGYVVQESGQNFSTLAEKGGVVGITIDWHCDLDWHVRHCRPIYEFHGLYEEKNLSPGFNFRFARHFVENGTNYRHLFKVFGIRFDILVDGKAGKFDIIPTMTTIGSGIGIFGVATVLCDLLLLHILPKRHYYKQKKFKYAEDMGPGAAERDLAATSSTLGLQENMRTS
Chain of UniProt P18031 (whole entry, looked up): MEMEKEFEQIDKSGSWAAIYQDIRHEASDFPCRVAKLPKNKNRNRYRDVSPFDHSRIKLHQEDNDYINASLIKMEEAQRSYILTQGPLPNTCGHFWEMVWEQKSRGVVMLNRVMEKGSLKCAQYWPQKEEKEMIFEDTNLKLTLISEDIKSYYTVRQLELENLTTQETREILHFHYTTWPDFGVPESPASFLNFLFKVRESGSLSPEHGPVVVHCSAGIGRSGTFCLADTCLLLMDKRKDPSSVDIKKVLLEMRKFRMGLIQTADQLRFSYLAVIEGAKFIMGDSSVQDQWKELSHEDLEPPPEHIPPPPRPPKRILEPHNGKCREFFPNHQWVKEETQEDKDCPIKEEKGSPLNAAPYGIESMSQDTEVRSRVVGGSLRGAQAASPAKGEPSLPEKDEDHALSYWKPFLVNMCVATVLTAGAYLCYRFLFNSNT
Chain of UniProt P05177 (whole entry, looked up): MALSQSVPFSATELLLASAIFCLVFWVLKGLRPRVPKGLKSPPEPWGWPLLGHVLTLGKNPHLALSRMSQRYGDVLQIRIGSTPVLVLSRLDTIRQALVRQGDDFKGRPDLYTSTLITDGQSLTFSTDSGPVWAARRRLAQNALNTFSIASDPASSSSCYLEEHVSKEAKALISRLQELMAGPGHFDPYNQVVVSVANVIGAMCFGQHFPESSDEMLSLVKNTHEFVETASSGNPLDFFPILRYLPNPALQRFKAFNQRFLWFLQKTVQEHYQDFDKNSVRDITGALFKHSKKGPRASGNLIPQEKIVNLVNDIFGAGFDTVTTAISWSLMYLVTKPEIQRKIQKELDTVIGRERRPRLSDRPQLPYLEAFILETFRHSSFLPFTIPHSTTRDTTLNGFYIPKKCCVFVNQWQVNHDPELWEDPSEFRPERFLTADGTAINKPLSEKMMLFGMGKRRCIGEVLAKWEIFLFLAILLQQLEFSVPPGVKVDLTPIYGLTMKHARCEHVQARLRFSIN
Chain of UniProt Q86VL8 (whole entry, looked up): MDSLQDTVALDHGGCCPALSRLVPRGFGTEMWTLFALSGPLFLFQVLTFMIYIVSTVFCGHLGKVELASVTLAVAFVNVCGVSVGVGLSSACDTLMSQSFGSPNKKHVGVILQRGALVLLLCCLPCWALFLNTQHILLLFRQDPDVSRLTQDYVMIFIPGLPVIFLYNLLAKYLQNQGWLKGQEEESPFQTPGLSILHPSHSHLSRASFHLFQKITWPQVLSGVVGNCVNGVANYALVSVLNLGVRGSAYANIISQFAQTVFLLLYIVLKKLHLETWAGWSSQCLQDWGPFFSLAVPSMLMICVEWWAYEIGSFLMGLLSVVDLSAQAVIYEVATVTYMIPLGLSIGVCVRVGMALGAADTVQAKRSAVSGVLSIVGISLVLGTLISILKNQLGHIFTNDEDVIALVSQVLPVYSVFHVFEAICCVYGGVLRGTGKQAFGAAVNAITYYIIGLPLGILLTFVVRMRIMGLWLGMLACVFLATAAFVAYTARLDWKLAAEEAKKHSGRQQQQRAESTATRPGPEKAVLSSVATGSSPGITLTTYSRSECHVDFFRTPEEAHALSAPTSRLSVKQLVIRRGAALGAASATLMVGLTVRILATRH
Chain of UniProt P02763 (whole entry, looked up): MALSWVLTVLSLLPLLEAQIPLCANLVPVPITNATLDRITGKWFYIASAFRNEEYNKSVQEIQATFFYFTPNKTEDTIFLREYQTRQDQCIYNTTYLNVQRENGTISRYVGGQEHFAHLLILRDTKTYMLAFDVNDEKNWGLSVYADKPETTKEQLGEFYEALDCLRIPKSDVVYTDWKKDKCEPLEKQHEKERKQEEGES

| Structure (SMILES) | tested on | test | system | conditions | how to read | measurement | result |
| --- | --- | --- | --- | --- | --- | --- | --- |
| C=C1CCC2C(C)(CO)C(=O)CCC2(C)C1CCC1=CCOC1=O (centres unmarked) | UGT2B7 | AZT glucuronidation, inhibitor | human liver microsomes | with: zidovudine substrate | – | Ki | 25 µM |
| Cc1cc(Nc2ccc(S(F)(F)(F)(F)F)cc2)n2nc(C(C)(F)F)nc2n1 | Plasmodium falciparum | – | P. falciparum malaria patients | oral, 250 mg | – | patients with cardiac disorders | 0% |
| CCc1cc(/C(C)=N/OCc2ccc(C3CCCCC3)c(C(F)(F)F)c2)ccc1CN1CC(C(=O)O)C1 | SLC47A2 (Homo sapiens, UniProt Q86VL8) | inhibitor | HEK293 transfected with SLC47A2 | up to 40 µM, 2 min, with: MPP+ 0.025 µM | – | maximal inhibition | 13.8% |
| CC(C)C[C@H](NC(=O)C[C@H](O)[C@H](CC(C)C)NC(=O)[C@H](Cc1c[nH]cn1)NC(=O)CNC(=O)[C@@H](NC(=O)[C@H](C)NC(=O)[C@H](Cc1c[nH]c2ccccc12)NC(=O)[C@H](CCC(N)=O)NC(=O)[C@@H](Cc1ccccc1)NC(=O)COCCOCCNC(=O)CCC(C(=O)O)N1CCN(CC(=O)O)CCN(CC(=O)O)CCN(CC(=O)O)CC1)C(C)C)C(N)=O (some centres unmarked) [lutetium-177 labelled] | – | – | female BALB/c nu/nu mice, bladder | intravenous, 100 pmol, 4 h, with: PA 300 µg | – | tissue uptake | 17 ± 17 %ID/g |
| NC/C(=C\F)COc1cccc(Cn2c(=S)[nH]c(=O)c3[nH]cnc32)c1 | SLC22A8 | transport, inhibitor | CHO cells expressing SLC22A8 | 30 µM, with: CF substrate | – | inhibition | < 50% |
| CCn1cc(-c2cc(Cn3ccnc3)cc3c2CCN([C@H](c2cc(OC)ccn2)C2CC2)C3=O)c(C(F)(F)F)n1 | JVM-2 | cell growth, inhibitor | – | 120 h | – | EC50 | 9.35 µM |
| COc1cc(-c2[o+]c3cc(O)cc(O)c3cc2O[C@@H]2O[C@H](CO)[C@@H](O)[C@H](O)[C@H]2O)ccc1O | ALB | binding, fluorescence quenching | – | pH 7, 20 °C, HSA 2 µM | – | Kd | 44.1 ± 2.91 µM |
| COc1cc2nc(N3CCN(C(=O)C4COc5ccccc5O4)CC3)nc(N)c2cc1OC (centres unmarked) | Alpha-1-acid glycoprotein 1, F1/S variants (ORM1, Homo sapiens, UniProt P02763) | binding, ultrafiltration competition | – | 37 °C, with: [3H]tamsulosin marker | – | Ki | 55.4 µM |
| Cc1oc2ccccc2c1Cc1cc(I)c(OCC(=O)O)c(I)c1 | KCNH2 (Homo sapiens, UniProt Q12809) | ion current, activator, whole-cell patch clamp | HEK293 expressing hERG1 | 10 µM, external K+ 10 mM, tail at -120 mV | – | maximal tail current amplitude | -3.91 ± 0.38 nA |
| CC(C)C[C@H](NC(=O)C[C@H](O)[C@H](CC(C)C)NC(=O)[C@H](Cc1c[nH]cn1)NC(=O)CNC(=O)[C@@H](NC(=O)[C@H](C)NC(=O)[C@H](Cc1c[nH]c2ccccc12)NC(=O)[C@H](CCC(N)=O)NC(=O)[C@@H](Cc1ccccc1)NC(=O)COCCOCCNC(=O)CCC(C(=O)O)N1CCN(CC(=O)O)CCN(CC(=O)O)CC1)C(C)C)C(N)=O (some centres unmarked) [lutetium-177 labelled] | – | – | female BALB/c nu/nu mice, lung | intravenous, 50 pmol, 1 h | – | tissue uptake | 0.5 ± 0.2 %ID/g |
| O=C1c2ccncc2C(=O)c2c1[nH]c1ccccc21 | mitochondrial complex I (human) | – | PAH hPASMC | 1 µM, 48 h | – | complex I activity | no inhibition |
| N#C[C@H](C[C@@H]1CCCNC1=O)NC(=O)[C@H](CC1CC1)NC(=O)c1cc2cccc(Cl)c2[nH]1 | CYP3A5 | NADPH metabolic stability | – | 2 µM, pH 7.4, 37 °C, 100 pmol/mL enzyme | – | half-life | 1.77 min |
| OC[C@H]1O[C@@H](Oc2cc3c(O)cc(O)cc3[o+]c2-c2ccc(O)cc2)[C@H](O)[C@@H](O)[C@@H]1O | ALB | binding, fluorescence quenching | – | pH 7, 40 °C, HSA 2 µM | – | Kd | 82.4 ± 8.75 µM |
| COc1cc(O)c(CC=C(C)C)c2c1C(=O)CC(c1ccc(O)cc1)O2 (centres unmarked) | CYP2E1 (human) | enzyme activity, inhibitor | human liver microsomes | 10 µM, pH 7.4, with: chlorzoxazone | – | inhibition | < 10% |
| O=c1[nH]c(=O)c(Cc2cccc(C(F)(F)F)c2)c([C@H]2CC[C@H](c3ccccc3)CC2)[nH]1 | SLC22A8 | uptake, inhibitor | HEK cells expressing SLC22A8 | with: estrone-3-sulfate | – | IC50 | > 1 µM |
| CN1CCN(c2ccc(Nc3ncc4cc(C#N)c(=O)n(C5CCCC5)c4n3)cc2)CC1 | Cyclin-dependent kinase 5, with p25 (CDK5, Homo sapiens, UniProt Q00535) | – | – | – | – | IC50 | 0.259 µM |
| O=C(O)COc1cccc(-c2nc(Nc3ccc4[nH]ncc4c3)c3ccccc3n2)c1 | UGT2B7 | enzyme activity, inhibitor | recombinant microsomes | with: diclofenac | – | IC50 | 40.5 µM |
| CCn1cc(-c2cc(Cn3ccoc3=N)cc3c2CCN([C@@H](C)c2cc(OC)ccn2)C3=O)c(C(F)(F)F)n1 | NCI-H441 | cell growth, inhibitor | – | 120 h | – | EC50 | 0.351 µM |
| CCC(CC)C(=O)Oc1cccc(C(O)CCN)c1.O=CO (centres unmarked) | porcine liver esterase | – | – | 99 µM, 60 min | relative to: time 0 min | compound remaining | 33% |
| C=CC(=O)N(C)CCOc1c(N)ncnc1-c1cc(F)cc(NC(=O)c2ccc(C3CC3)cc2F)c1C | CYP3A5 | recombinant enzyme incubation | – | – | – | fraction unbound in microsomal incubation | 0.94 |
| C[C@@H](Oc1ccc(S(C)(=O)=O)cc1C(=O)N1C[C@@H]2C[C@]2(c2cc(C(F)(F)F)on2)C1)C(F)(F)F | CYP3A5 | recombinant CYP, depletion | phosphate buffer | pH 7.4 | – | CYP contribution | 3.87% |

| Structure (SMILES) | tested on | test | system | conditions | how to read | measurement | result |
| --- | --- | --- | --- | --- | --- | --- | --- |
| COc1cc(O)c(CC=C(C)C)c(O)c1C(=O)/C=C/c1ccc(O)cc1 | CYP2E1 (human) | enzyme activity, inhibitor | human liver microsomes | 10 µM, pH 7.4, with: chlorzoxazone | – | inhibition | < 10% |
| COc1ccc(F)cc1C(=O)NCc1ccc(-c2nn([C@@H](C)C(F)(F)F)c(N)c2C(N)=O)cc1 | CYP3A4 | – | human, both sexes, plasma | oral, 200 mg, single dose, with: rifampin | – | Cmax | 2580 ng/mL |
| COc1ccc2nc([S+]([O-])Cc3ncc(CO)c(OC)c3C)[nH]c2c1 (centres unmarked) | CYP2C19 | – | human | oral, 20 mg, Day 14, with: encorafenib plus binimetinib | relative to: Day -7 | Cmax decrease | 28% |
| C[C@H](CCC(=O)NCC(=O)O)[C@H]1CC[C@H]2[C@@H]3[C@H](O)C[C@@H]4C[C@H](OS(=O)(=O)O)CC[C@]4(C)[C@H]3CC[C@]12C | SLC22A8 | substrate | MDCK-II parental cells | – | – | uptake rate | 8.4 ± 2.6 pmol/min/mg protein |
| CC(C)[C@H](NC(=O)[C@H](Cc1ccc(O)cc1)NC(=O)[C@H](Cc1ccc(O)cc1)NC(=O)[C@@H]1CCCN1C(=O)[C@H](CCC(=O)O)NC(=O)[C@H](CCC(=O)O)NC(=O)[C@H](Cc1c[nH]c2ccccc12)NC(=O)[C@@H]1CCCN1C(=O)[C@@H](NC(=O)[C@H](CCC(N)=O)NC(=O)c1ccc2c(c1)C(=O)OC21c2ccc(O)cc2Oc2cc(O)ccc21)C(C)C)C(=O)N[C@H](C(=O)N[C@@H](CCCCN)C(=O)N[C@@H](CCCCN)C(=O)N[C@@H](CO)C(=O)N[C@@H](CO)C(=O)NCC(=O)NCC(N)=O)C(C)C | – | – | human, plasma | intravenous infusion, 400 mg, 0.5 h after infusion start | – | plasma concentration | 27700 ng/mL and 19500 ng/mL |
| Nc1ncnc2c1ncn2[C@@H]1O[C@H](COP(=O)(O)CP(=O)(O)OP(=O)(O)O)[C@@H](O)[C@H]1O | P2X purinoceptor 1 (P2RX1, Homo sapiens, UniProt P51575, K136A) | saturation binding | HEK293 | 79 nM | – | specific binding | 2840 CCPM and 3030 CCPM |
| CCCC(CCC)C(=O)Oc1cccc(C(O)CCN)c1.O=CO (centres unmarked) | porcine liver esterase | – | – | 99 µM, 30 min | relative to: time 0 min | compound remaining | 90.1% |
| Cn1cc(-c2ccc(-c3cncc(Cl)c3N3CCC4(CCNC4=O)CC3)cc2)cn1 | COLO 205 | gene expression, microarray, measured: SAT1 mRNA | – | concentration not given, 6 h | relative to: untreated cells | log2 fold change | 2.74 |
| CC[C@H](C)[C@@H]([C@@H](CC(=O)N1CCC[C@H]1[C@H](OC)[C@@H](C)C(=O)N[C@@H](Cc1ccccc1)C(=O)NCCCO)OC)N(C)C(=O)[C@@H](NC(=O)[C@H](C(C)C)N(C)C)C(C)C | CYP3A5 | recombinant enzyme turnover | – | 1 µM | – | CLint | 0.81 µL/min/pmol |
| Cc1cc(O)cc(C)c1C[C@H](NC(=O)[C@@H]1CCCN1C(=O)[C@H](CCCNC(=N)N)NC(=O)[C@H](CCCNC(=N)N)N(C)C(=O)CNC(=O)[C@@H](CO)NC(=O)CNC(=O)[C@H](Cc1cn(CCNC(=O)[C@H](CCCNC(=N)N)NC(=O)[C@H](CC(C)C)NC(=O)C2OC2C(=O)O)nn1)NC(=O)CN1CCN(CC(=O)O)CCN(CC(=O)O)CCN(CC(=O)O)CC1)C(=O)N[C@H](C(=O)N[C@@H](CC(C)C)C(=O)O)C(C)(C)C (mixture of isomers) | – | – | human | – | – | fraction unbound | 0.924 |
| COC(=O)c1cc(C(C)=NNc2nc(-c3ccc(C#N)cc3)cs2)ccc1O | PTPN1 (Homo sapiens, UniProt P18031) | enzyme activity, inhibitor | – | concentration not given | – | duration of inhibition | ~20 min |
| OC[C@H]1O[C@@H](Oc2cc3c(O)cc(O)cc3[o+]c2-c2ccc(O)c(O)c2)[C@H](O)[C@@H](O)[C@@H]1O | ALB | binding, fluorescence quenching | – | pH 7, 20 °C, HSA 2 µM | – | Kd | 20.8 ± 1.6 µM |
| CC[C@H]1[C@@H](O)[C@@H]2[C@H](CC[C@]3(C)[C@@H]([C@H](C)CCNC(=O)NS(=O)(=O)c4ccc(C(C)(C)C)cc4)CC[C@@H]23)[C@@]2(C)CC[C@@H](O)C[C@@H]12 | CYP3A4 | – | human, plasma | 10 mg, day 1, compound alone | – | CL/F mean | 28.4 L/h |
| C=CC(=O)Nc1cc(Nc2nccc(-c3cn(C)c4ccccc34)n2)c(OCC(F)(F)F)nc1N(C)CCNC | CYP3A5 | substrate, recombinant enzyme | – | – | – | formation clearance | 1.52 µL/min/pmol |
| Cc1cc(O)cc(C)c1C[C@H](NC(=O)[C@@H]1CCCN1C(=O)[C@H](CCCNC(=N)N)NC(=O)[C@H](CCCNC(=N)N)N(C)C(=O)CNC(=O)[C@@H](CO)NC(=O)CNC(=O)[C@H](Cc1cn(CCNC(=O)[C@H](CC(C)C)NC(=O)[C@H](CC(C)C)NC(=O)C2OC2C(=O)NO)nn1)NC(=O)CN1CCN(CC(=O)O)CCN(CC(=O)O)CCN(CC(=O)O)CC1)C(=O)N[C@H](C(=O)N[C@@H](CC(C)C)C(=O)O)C(C)(C)C (some centres unmarked) | – | – | human | – | – | fraction unbound | 0.84 |
| COc1ccc2[nH]c([S+]([O-])Cc3ncc(C)c(OC)c3C)nc2c1 (centres unmarked) | CYP2C19 | – | human, plasma | oral, 20 mg, Day 14, with: encorafenib at steady state | relative to: Day -7 | geometric LS mean ratio of AUClast | 0.827 |
| NCCC(O)c1cccc(OC(=O)C2CCCCC2)c1.O=CO (centres unmarked) | porcine liver esterase | – | – | 99 µM, 60 min | relative to: time 0 min | compound remaining | 6.61% |
| CC(C)n1ncc2c(C(=O)NCC3(C)CNC3)cc(C3CC3)nc21 | enterovirus A71 | – | Tainan/4643/1998 | 3 µM | – | plaque area | 0% |
| Cn1c(=O)c2c(ncn2C)n(C)c1=O | Cytochrome P450 1A2 (CYP1A2, Homo sapiens, UniProt P05177) | – | human, plasma | oral, 200 mg, day 1, alone, arithmetic mean | – | AUC(0-inf) | 33900 ng·h/mL |
| Cc1cc(C)c(CNC(=O)c2cc(Cl)c3c(c2C)O[C@@](C)([C@H]2CC[C@H](N(C)C)CC2)O3)c(=O)[nH]1 | ALB | ultracentrifugation | 4% human serum albumin solution | 600 ng/mL, 160 min | – | unbound fraction | 0.621 |
